Measured values from different studies.
Each numbered part is a random draw from the data of one study; scales do not carry over between parts.

Sample 1
Target: Prothrombin, mature alpha-thrombin (F2, Homo sapiens, UniProt P00734)
Technique: aptamer microarray, sandwich
Form: DNA with 2'F-ANA
Medium: in vitro
Concentration: 200 nM
Notes: whole 15-mer aptamer, many near background
Together with: Cy3 exosite-II aptamer, 400 nM
Reading: higher = stronger binding
Oligonucleotide: GGTTGGTGTGGTTGG
Modification	mean fluorescence intensity [a.u.]
2'F-ANA at 1 2 8 9 10 11 12 13 15	79.8
2'F-ANA at 1 3 5 6 7 8 10 11 12 13 14 15	50.9
2'F-ANA at 1 2 3 6 9 11	222
2'F-ANA at 1 2 7 8 10 11 12 15	81.5
2'F-ANA at 1 2 5 9 11 12 14	48.7
2'F-ANA at 3 4 5 6 7 9 10 11 13 15	65.6
2'F-ANA at 3 4 5 8 10 11 13 14 15	50.6
2'F-ANA at 2 3 4 6 7 8 9 14 15	263
2'F-ANA at 1 2 5 7 8 10 11 12 13	47.8
2'F-ANA at 4 7 9 10 11 15	82.6
2'F-ANA at 1 2 3 4 7 9 10 12 15	74.4
2'F-ANA at 4 5 7 8 10 13 14 15	48.5
2'F-ANA at 5 7 9 10 11 12 14 15	47.5
2'F-ANA at 3 5 6 8 9 13 15	82.1
2'F-ANA at 1 2 3 4 5 6 8 10 11 14 15	53.9
2'F-ANA at 3 4 5 6 11 12 13 14	52.1
2'F-ANA at 3 4 6 9 15	495
2'F-ANA at 2 5 7 12 14 15	49.8
2'F-ANA at 1 3 5 6 10	45.2
2'F-ANA at 3 4 5 6 8 11 15	82
2'F-ANA at 1 3 4 7 15	272
2'F-ANA at 8 10 14	111
2'F-ANA at 3 4 5 6 7 8 9 10 11 12 13 14 15	71.9

Sample 2
Target: Fragile X messenger ribonucleoprotein 1, C-terminal low-complexity region (Fmr1, Mus musculus, UniProt P35922)
Technique: RNA Bind-n-Seq
Form: RNA
Medium: in vitro
Concentration: 200 nM
Notes: whole 134-nt RNA, ends assumed
Together with: 150 mM LiCl
Reference: input library
Reading: higher = stronger binding
Each molecule: 7-deaza-guanosine replaces G
Shared flanks, not repeated: GGGAGUUCUACAGUCCGACGAUC … UGGAAUUCUCGGGUGUCAAGG
Oligonucleotide	log2 enrichment
UUCCUCAAGUCCUGUGCUACACAUCGUAUGUACCGAAUCGGUGGUGGUGGAAAGUAUUAUGUUACGCCGUUCGGAUCUGCACUUCCAGCA	0.345
UCAAGUCCUGUGCUACACAUCGUAUGUACCGAAUCGGUGGUUUUUGGUUUUUGGAAAGUAUUAUGUUACGCCGUUCGGAUCUGCACUUCC	-0.821
UCCUGUGCUACACAUCGUAUGUACCGAAUCGGGGAAAAAAAGGGGAAAGGGGAAAGGGGAAAGUAUUAUGUUACGCCGUUCGGAUCUGCA	-0.233
ACCAUGCAGGUGGGCAUCUUUGGGAAGUGGGGCAAGGGGGGGAUAGGGAGGGGGGUAACACUUUGGGAACAGGUGGUCCCAGAUCGUUUC	1.21
ACCAUGCAGGUGGGCAUCUUUGGGAAGUAGGGCAAGGGGGGGAUAGGGAGGGGGGUAACACUUUGGGAACAGGUGGUCCCAGGUCGUUUC	1.43
ACCAUGCAGGUGGGCCUCUUUGGGAAGUGGGGCAAGGGGGGGAUAGGGAGGGGGGUAACACUUUGGGAACAGGUGGUCCCAGGUCGUUUC	1.31
UCCUGUGCUACACAUCGUAUGUACCGAAUCGGGAAAAAAGGGGAAAAAAGGAAAAAAGGAAAGUAUUAUGUUACGCCGUUCGGAUCUGCA	-0.268
CCUCAAGUCCUGUGCUACACAUCGUAUGUACCGAAUCGGCGGGGCGGGCGGGAAAGUAUUAUGUUACGCCGUUCGGAUCUGCACUUCCAG	-0.325

Sample 3
Target: Histone acetyltransferase KAT6A, both winged helices, GST fusion (KAT6A, Homo sapiens, UniProt Q92794, residues 1-181)
Technique: protein binding microarray
Form: double-stranded DNA, one strand shown
Medium: in vitro
Concentration: not given
Notes: 8-mer, flanks averaged, mean of 2 arrays, mostly near background
Reference: not given
Reading: higher = stronger binding
Construct (chain): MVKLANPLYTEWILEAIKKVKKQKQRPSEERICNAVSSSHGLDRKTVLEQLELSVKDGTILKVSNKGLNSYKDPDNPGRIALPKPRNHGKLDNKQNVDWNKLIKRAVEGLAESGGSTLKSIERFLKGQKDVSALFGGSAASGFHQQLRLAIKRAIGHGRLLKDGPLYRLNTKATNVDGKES
Oligonucleotide	E-score
ACGGCGGG	0.34
CGCTCCGA	0.224
CGTTGTAG	0.0495
ACCCTCTC	-0.278
AGCAGCGA	-0.0508
ACGGTATA	0.212
GAGAAATA	-0.0121
CATCCATA	-0.132
AAATCCTT	-0.115
CGATGCCG	0.327
GGTCTGAA	-0.0289
ATGCAGTG	-0.161
CACCCAAA	-0.157
CGCCCCCA	0.00582
ACGGTATG	0.0632
CACCAGCC	0.0199
CGTACCAC	0.0897
GAATGCGA	0.0526
AAGTGATC	-0.0754
AAGAAAGC	-0.119
GTCTAAGA	-0.0819
ATCTTTGC	-0.00585
AGATGCCT	-0.246
TTCATGAA	0.0759
GGTTGCAA	-0.00556

Sample 4
Target: RING finger protein unkempt homolog, zinc fingers 1-6, SBP tag (UNK, Homo sapiens, UniProt Q9C0B0, residues 30-357)
Sequence of UniProt Q9C0B0 (30-357, looked up): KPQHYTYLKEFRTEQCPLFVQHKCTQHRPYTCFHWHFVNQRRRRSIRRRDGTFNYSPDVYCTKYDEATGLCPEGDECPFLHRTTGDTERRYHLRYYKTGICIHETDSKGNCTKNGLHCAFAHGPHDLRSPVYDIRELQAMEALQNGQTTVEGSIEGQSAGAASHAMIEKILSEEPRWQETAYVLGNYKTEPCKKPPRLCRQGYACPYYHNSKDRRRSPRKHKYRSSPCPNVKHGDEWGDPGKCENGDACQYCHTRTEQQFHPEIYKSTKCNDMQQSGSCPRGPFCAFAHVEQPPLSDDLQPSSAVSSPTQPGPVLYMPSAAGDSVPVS
Technique: RNA Bind-n-Seq
Form: RNA
Medium: in vitro
Concentration: 100 nM
Notes: RNA with constant flanks, vertebrate orthologous sites, ends assumed
Reference: input RNA pool
Reading: higher = stronger binding
Shared flanks, not repeated: GGGAGUUCUACAGUCCGACGAUC … CAACAGAGGAUUGAGCAUCA
Oligonucleotide	bound/input enrichment [ratio]
UCAUUGUACUGCAAAAAUCAUCCUCGUUCUAAAUUAGCCACAGUGAUAACUUGUCUGCAGUAGUAGAGGCAUUUACCUUUUAAAUUAUCUGCUUUGUCUGAUACCUGAAACACAUCAAAA	0.717
AUCCCAGUUUGUAUGCACAUUAUUCACAUUCCUAUCUGUUGUGUUUGCAGAAAUGACAUUUUUACCUUUUCUAAGGGUUAAUUUUUGAUUUUCAUAUUAUUUGGUUGCAUGAAGUUGCCC	0.282
UUUUGUACAGGGAGGCCUUCUCUGUACUAAUUUGUUGUAGUUAUAAACCAAUUAGCAAAACAGCUUACAUUUGUAUUUAUUUUCUAUUGCAUACCUCUCUGCCCCAUGUUUUUCUCUUCA	0.559
CAGCUGACUCACUUAUUGGGAGGGCUGCACAUAUAGCUGUUCUGGAUUCAGAAAUAUUUUUGGAAAAAUUCUUCCUGGUGGCUGCCCUCAAAUAUUUCCAAUAGAAUAAAAAUAUUAUUA	0.542
GCAAUGAAAAAACAGCCCUCCUCCCAGCCCCCAUUUCACUAGGAGAUACAAACAUUACCAUAGAAGAACAAUUUAACUCAAUAAAUUUAUCUUUUCAGGAUGAUCCAGACUCCAGUACCA	1.21
UGUGAGGGUCUACUGACCACUCACUGUUAUGUCUGGUAUCUGUAAACACUCUUUGUUCUUAGUCUUUUCUUGUAUAAUUGAUGUUCUUUAAAAUUGUUAAUGUAUAACAGGGCUUCUGUU	1.13
CUUUUAAUCGACUAUGUCUGUAAAUGUAUAUUGAGAGAAUUGAAGUAUUUAUAAACAGAGUGAUUUAUUUAAGGAAAAGCUUAUCCCUCUUUCCUAAGGUGGUCUGUGUUAAUUCCAUUU	0.19
CCUUUAUAGAGGGUAGUACAUGUUUCAUAAAGGAGAGUCUUUAUAGUUUUGUUUGUCAUAUAGUAUUUUGGAAUUUGUAUAAUGAGGAUGUUUAGAAGCCAUAUAAAUGGCUUUUUUUAA	1.3

Sample 5
Target: RNA binding protein fox-1 homolog 2, RRM domain, GST-SBP tag (RBFOX2, Homo sapiens, UniProt O43251-10, residues 100-194)
Technique: RNA Bind-n-Seq
Form: RNA
Medium: in vitro
Concentration: 365 nM
Notes: natural RNA segment, single round, ends assumed
Reference: no-protein control
Reading: higher = stronger binding
Shared flanks, not repeated: GGGAGUUCUACAGUCCGACGAUC … UGGAAUUCUCGGGUGCCAA
Target sequence (chain): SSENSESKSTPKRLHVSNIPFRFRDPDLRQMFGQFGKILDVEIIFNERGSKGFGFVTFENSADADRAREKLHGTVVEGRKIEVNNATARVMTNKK
Oligonucleotide	RBNS enrichment (R)
UUUAUUUAUCUCUCAUUCUGUAUAGAAUUCUUGCCGCCAUCCCAGGUCUAGCCUUAGGAGCAAAUGUAGUAGAUAGUCGAAUAAUAAAUAACUUAAUGUUUUGGACAUAU	0.456
UAUCCUCCUGGCCCCACCCUGCCCCUUCUUUUUGGUUUUGACAUCAUUCAUUUCCACCUGGGAAUUUCUGGUGCCAUGCCAGAAAGAAUGAGGAACCUGUAUUCCUCUUC	0.516
AUUGACAGUUGCAGAAUUGUGGAGUGUUUUUACAUUGAUCUUUUGCUAAUGCAAUUAGCAUUAUGUUUUGCAUGUAUGACUUAAUAAAUCCUUGAAUCAUACGACUGGUA	0.377
AAAAAAGAAUUUUGUAUGUUGUGGCAUUUAAUCAUUUCAUGUUCAGUAACAAAUGAUAUUUUUGUUAAAUGGACGAGGAGUCCAUUCACGCACGCUCUACUUUGAUAUUA	0.965
UGGACAUGGAGCUGUCCUUGGGAAGGACCCCACGCUCGGGGCCCCACUCCUGCUGGAUGUCCAGGCGGCCUUGGGAGGCCCAGCCCUGGGCCUGCCUGGGGCUUUAACCA	0.204
UUCUCCACUUUUAUAAAGCCAAGCCUUUCCCCAGAAUAGUAUUAACUCCUGGUGCUUUGUACUACUGGUUCAGCGGCCUCGGGCUUCUUUUCUAUAUUAAUAAAGAAGAG	0.5
GGGAAAAGAAAAGGAAGAAAAAGUGCAUAGAGCUGGCCUGGAACACGUCCCGCCGUUGGAGAAGGAGCGCGGGGGCGUUAGUGGACCCGCGCUCCCAUCCCCCACUCUCA	1.07
CCUCUGUCCCGAGGUCGUCGUCUGCUUUCUUUUUUGGGUUUCUUUCUAGAAGAUUGAGAAGUGCAUAUGACAGGCUGAGAGCACCUCCCCAAACACACAAGCUCUCAGCC	0.674
